# Results gathered from unrelated publications.
# Protocols differ between the studies behind these lines. Numbers after ± are the reported error.
Structure (SMILES),tested on,assay,system,conditions,IC50 [µM]
COC1=C2C[C@@H](C)C[C@H](OC)[C@H](O)[C@@H](C)/C=C(\C)[C@H](OC(N)=O)[C@@H](OC)/C=C\C=C(/C)C(=O)NC(=C(c3ccccc3)C1=O)C2=O,HUVEC,"cytotoxicity, MTT",,,2.1 ± 0.4
CCCCC[C@@H]1NC(=O)[C@@H]2CCCN2C(=O)[C@H](CC(=O)O)NC(=O)[C@H](Cc2ccc(O)cc2)NC(=O)[C@H](CO)NC(=O)[C@H]([C@@H](C)CC)NC(=O)[C@H](Cc2ccc(-c3ccccc3)cc2)NC(=O)[C@H](CC(C)C)NC(=O)[C@@H]2[C@@H](c3ccccc3)CCN2C(=O)[C@H](NC(=O)[C@H](CCCNC(=N)N)NC(=O)[C@H](CCCNC(=N)N)NC(C)=O)CSCSC[C@@H](C(=O)N[C@@H](CCCNC(=N)N)C(=O)N[C@@H](CCCNC(=N)N)C(N)=O)NC1=O,AsPC-1,LDH release,,18 h,> 50
Cc1ncsc1-c1ccc([C@H](C)NC(=O)[C@@H]2C[C@@H](O)CN2C(=O)[C@@H](c2cc(N3CCC(CN4CCC(OC5CC(Oc6cc(N7C8CCC7CN(c7cc(-c9ccccc9O)nnc7N)C8)ccn6)C5)CC4)CC3)no2)C(C)C)cc1 (stereo partly drawn),normal prostate epithelial cells,"cell viability, CellTiter-Glo",,7 days,0.083
Cc1ncsc1-c1ccc(CNC(=O)[C@@H]2C[C@@H](O)CN2C(=O)[C@@H](NC(=O)C2(F)CC2)C(C)(C)C)c(OCCOc2ccc(CN3CCN(c4cc(-c5ccccc5O)nnc4N)CC3)cc2)c1,SMARCA4 wild-type lung cancer cells,clonogenic growth,,"10 days, median over cell lines",0.018
CCC(C)C(C(CC(=O)N1CCCC1C(OC)C(C)C(=O)NC(Cc1ccccc1)C(=O)O)OC)N(C)C(=O)C(NC(=O)C(C(C)C)N(C)C(=O)CCSSc1ccccn1)C(C)C (stereo not drawn),HeLa,"cell growth, MTT",,"2 h treatment, read at 72 h",~5
COc1c(C)c2c(c(O)c1C/C=C(\C)CCC(=O)O)C(=O)OC2,RD-ES,cell proliferation,,,0.525
CC(=O)O[C@H]1C(=O)[C@@]2(C)[C@H]([C@H](OC(=O)c3ccccc3)[C@]3(O)C[C@H](OC(=O)[C@H](O)[C@@H](NC(=O)c4ccccc4)c4ccccc4)C(C)=C1C3(C)C)[C@]1(OC(C)=O)CO[C@@H]1C[C@@H]2O,HeLa 14 expressing mutant P-gp,,,48 h,0.0097 ± 0.0006
CC[C@@H](C)[C@@H](NC(=O)[C@@H](Cc1c[nH]c2ccccc12)NC(=O)[C@@H](CCCNC(=N)N)NC(=O)[C@H](CCC(N)=O)NC(=O)[C@@H]1CCCN1C(=O)[C@H](CCCNC(=N)N)NC(=O)[C@H](CCCNC(=N)N)NC(=O)[C@H](CCCNC(=N)N)NC(=O)[C@H](CCC(N)=O)NC(=O)[C@H](CCCNC(=N)N)NC(=O)[C@H](CCCNC(=N)N)NC(=O)[C@H](CCCCN)NC(=O)[C@H](CCCCN)NC(=O)[C@H](CCCNC(=N)N)NC(=O)CN)C(=O)N[C@H](CCSC)C(=O)N[C@H](Cc1ccc(O)cc1)C(=O)N[C@H](Cc1ccccc1)C(N)=O,fibroblasts,,,,81
N=C(Nc1ccccc1)c1cc2c(-c3ccccc3)n[nH]c2c(Nc2ccccc2)n1,SKOV3,"cell viability, MTS",,48 h,1.1 ± 0.1
COC1=C2C[C@@H](C)C[C@H](OC)[C@H](O)[C@@H](C)/C=C(\C)[C@H](OC(N)=O)[C@@H](OC)/C=C\C=C(/C)C(=O)NC(=C(C)C1=O)C2=O,HUVEC,"cytotoxicity, MTT",,,16.9 ± 3.3
N.N.[Cl][Pt][Cl],HL-7702 normal hepatocytes,"cell viability, MTT",,48 h,17.1 ± 1.04
c1ccc(CNCc2cc3c(-c4ccccc4)n[nH]c3c(Nc3ccccc3)n2)cc1,SKOV3,"cell viability, MTS",,48 h,4.3 ± 0.2
CC[C@H](C)[C@@H]1NC(=O)[C@H](Cc2ccc(-c3ccccc3)cc2)NC(=O)[C@H](CC(C)C)NC(=O)[C@@H]2[C@@H](c3ccccc3)CCN2C(=O)[C@H](NC(=O)[C@H](CCCNC(=N)N)NC(=O)[C@H](CCCNC(=N)N)NC(=O)[C@H](CCCCN=[N+]=[N-])NC(C)=O)CSCSC[C@@H](C(=O)N[C@@H](CCCNC(=N)N)C(=O)N[C@@H](CCCNC(=N)N)C(N)=O)NC(=O)[C@H](C(C)C)NC(=O)[C@@H]2CCCN2C(=O)[C@H](CC(=O)O)NC(=O)[C@H](Cc2ccc(O)cc2)NC(=O)[C@H](CO)NC1=O,AsPC-1,LDH release,,18 h,> 50
COc1cc2c(c(OC)c1OC)-c1ccc(OC)c(=O)cc1[C@@H](NC(C)=O)CC2,HeLa 14 expressing mutant P-gp,,,48 h,0.034 ± 0.0017
N.N.[Cl][Pt][Cl],THLE-2,"cytotoxicity, MTT",,3D culture,4.9 ± 0.121
CCCCN1[C@@H]2CC[C@H]1C[C@@H](OC(c1ccc(F)cc1)c1ccc(F)cc1)C2,Plasmodium falciparum,,Dd2,,3.98
N.N.[Cl][Pt][Cl],2C6 normal pancreatic,"cytotoxicity, MTT",,24 h,3.16 ± 0.12
COc1ccc(C(=O)NCc2cccnc2)cc1C(=O)NCc1cccnc1,Plasmodium falciparum,,7G8,,3.16
CC[C@H](C)[C@@H]1NC(=O)[C@H](Cc2ccc(-c3ccccc3)cc2)NC(=O)[C@H](CC(C)C)NC(=O)[C@@H]2[C@@H](c3ccccc3)CCN2C(=O)[C@H](NC(=O)[C@H](CCCNC(=N)N)NC(=O)[C@H](CCCNC(=N)N)NC(C)=O)CSCSC[C@@H](C(=O)N[C@@H](CCCNC(=N)N)C(=O)N[C@@H](CCCNC(=N)N)C(N)=O)NC(=O)[C@H](C(C)C)NC(=O)[C@@H]2CCCN2C(=O)[C@H](CC(=O)O)NC(=O)[C@H](Cc2ccc(O)cc2)NC(=O)[C@H](CO)NC1=O,AsPC-1,LDH release,,18 h,> 50
CC(C)=C[C@H]1C[C@H](C)[C@]2(CC[C@]3(C)C[C@H]4[C@H]5/C(=C\C[C@H]32)CO[C@@]5(O)C[C@@]4(C)O)O1,"HMLE-TWIST mammary epithelial, EMT+",cell viability,,,~8
COc1cc(Nc2nc(CN)cc3c(-c4ccccc4)n[nH]c23)cc(OC)c1OC,SKOV3,"cell viability, MTS",,48 h,3.9 ± 0.4
c1ccc2sccc2c1,HUVEC,"thymidine uptake, inhibitor",,,> 20
COc1cc(Nc2nc(CNCc3ccccc3)cc3c(-c4ccccc4)n[nH]c23)cc(OC)c1OC,SKOV3,"cell viability, MTS",,48 h,4.1 ± 0.2
CN1CCN(S(=O)(=O)c2cc([N+](=O)[O-])ccc2N(CCOS(C)(=O)=O)CCOS(C)(=O)=O)CC1,HCT-116 overexpressing AKR1C3,"cell growth, sulforhodamine B",,96 h,0.0018

# Excerpt of the above:
Structure (SMILES),tested on,assay,system,conditions,IC50 [µM]
COc1cc(Nc2nc(CN)cc3c(-c4ccccc4)n[nH]c23)cc(OC)c1OC,SKOV3,"cell viability, MTS",,48 h,3.9 ± 0.4
c1ccc2sccc2c1,HUVEC,"thymidine uptake, inhibitor",,,> 20
